Measured values pooled from the literature.
Each line is one published result; not all experiments were run side by side. ± marks the error that the study gave.
UniProt Q92731, sequence (whole entry, looked up): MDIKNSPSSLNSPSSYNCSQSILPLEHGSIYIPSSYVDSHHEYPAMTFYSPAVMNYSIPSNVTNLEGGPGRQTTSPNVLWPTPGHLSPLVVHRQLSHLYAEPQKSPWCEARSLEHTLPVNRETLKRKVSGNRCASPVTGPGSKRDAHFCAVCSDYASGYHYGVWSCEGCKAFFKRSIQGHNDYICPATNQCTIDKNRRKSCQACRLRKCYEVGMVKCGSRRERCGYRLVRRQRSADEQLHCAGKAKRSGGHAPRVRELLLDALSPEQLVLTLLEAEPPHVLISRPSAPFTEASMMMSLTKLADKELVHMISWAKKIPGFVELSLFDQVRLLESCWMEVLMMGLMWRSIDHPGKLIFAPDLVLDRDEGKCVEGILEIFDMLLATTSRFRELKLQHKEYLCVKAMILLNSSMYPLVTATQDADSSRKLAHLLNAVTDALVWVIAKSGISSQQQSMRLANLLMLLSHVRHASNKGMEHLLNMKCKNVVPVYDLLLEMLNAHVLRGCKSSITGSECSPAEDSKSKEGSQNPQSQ
UniProt Q9NQS5, sequence (whole entry, looked up): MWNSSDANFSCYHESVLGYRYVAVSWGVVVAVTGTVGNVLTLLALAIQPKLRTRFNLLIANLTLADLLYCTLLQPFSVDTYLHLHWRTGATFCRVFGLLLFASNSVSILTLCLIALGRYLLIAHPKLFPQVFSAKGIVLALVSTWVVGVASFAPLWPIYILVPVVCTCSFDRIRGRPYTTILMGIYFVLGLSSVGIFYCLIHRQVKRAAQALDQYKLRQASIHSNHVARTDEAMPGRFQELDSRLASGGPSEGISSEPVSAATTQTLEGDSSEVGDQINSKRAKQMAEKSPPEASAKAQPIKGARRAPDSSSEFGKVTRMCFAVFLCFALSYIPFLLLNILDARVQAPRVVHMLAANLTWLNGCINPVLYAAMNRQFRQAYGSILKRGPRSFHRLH
UniProt Q9HAW9, sequence (whole entry, looked up): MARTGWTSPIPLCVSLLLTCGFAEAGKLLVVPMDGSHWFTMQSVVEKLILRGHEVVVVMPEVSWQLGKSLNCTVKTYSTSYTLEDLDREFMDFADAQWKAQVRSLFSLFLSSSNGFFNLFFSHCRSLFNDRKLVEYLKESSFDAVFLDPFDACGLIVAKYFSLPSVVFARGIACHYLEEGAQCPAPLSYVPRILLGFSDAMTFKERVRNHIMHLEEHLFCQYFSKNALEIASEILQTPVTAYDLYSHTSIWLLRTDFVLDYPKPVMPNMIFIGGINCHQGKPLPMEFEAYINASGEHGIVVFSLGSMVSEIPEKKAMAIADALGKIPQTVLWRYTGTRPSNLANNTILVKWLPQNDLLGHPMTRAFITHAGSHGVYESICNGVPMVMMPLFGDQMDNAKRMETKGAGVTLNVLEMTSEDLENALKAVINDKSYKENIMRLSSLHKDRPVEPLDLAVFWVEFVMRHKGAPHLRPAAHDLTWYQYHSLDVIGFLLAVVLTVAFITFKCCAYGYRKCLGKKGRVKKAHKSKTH

`COc1cc(Nc2ncc3c(n2)-c2ccc(Cl)cc2C(c2c(F)cccc2OC)=NC3)ccc1C(=O)O` — result for “patients with adverse event”: 17% (item: weight loss, grade 1; cancer patients, phase 1/2; oral, dose not given, with: pembrolizumab).
`O=C(O)CCCC(=O)O`: “host cell number” 0.982 ± 0.043 (HCT-8; Hoechst nuclei count; 1 mM, 24 h; reference: PBS).
Under “free drug concentration”, `C/C(O)=C(\C#N)C(=O)Nc1ccc(C(F)(F)F)cc1` is recorded as 260 nM (Jurkat; culture medium; 1 µM, 48 h).
`Cc1cc(Nc2ccc(S(F)(F)(F)(F)F)cc2)n2nc(C(C)(F)F)nc2n1` — result for “patients with QTcF above threshold”: 33.3% (Plasmodium vivax; 12-lead Holter ECG; human malaria patients; oral, 800 mg, QTc above 450 ms).
`CC(C)=CCc1cc2c(cc1O)O[C@H](c1ccc(O)cc1)CC2=O` has a CLint of 248 µL/min/mg (UGT1A8 (Homo sapiens, UniProt Q9HAW9); glucuronidation, substrate; recombinant enzyme; pH 7.4).
`O=C(Nc1nc2cccc(-c3ccc(CN4CCS(=O)(=O)CC4)cc3)n2n1)C1CC1` — result for “treatment-emergent adverse events”: 0% (item: immune system disorders; human rheumatoid arthritis patients; oral, 150 mg once daily, 4 weeks, regardless of relatedness).
`Cn1cc(Nc2nccc(-c3ccc4c(c3)CN(C3COC3)CC[C@H]4NC(=O)c3cn(C(C)(C)C)nn3)n2)cn1` — result for “CD4+ T cell count change”: 12.9% (human, whole blood; 50 mg twice daily, day 7; reference: pre-dose baseline).
With `Oc1cc(NCCc2ccccc2)nc(O)n1` the EC50 was 198 ± 52 nM (GPR84 (Homo sapiens, UniProt Q9NQS5); cAMP level, agonist).
`N#Cc1ccc2c(c1)[C@H]1CCCN(C(=O)c3ccc4[nH]cnc4c3)[C@H]1C2` — result for “mean ACTH level”: 8.6 pmol/L (human; 40 mg, day 15).
For `Cc1c(-c2ccc(N3CCc4cccc(C(=O)Nc5nc6ccccc6s5)c4C3)nc2C(=O)O)cnn1CC12CC3(C)CC(C)(C1)CC(OCCNCC[C@H](O)CO)(C3)C2`, “mean arterial pressure change” read 3 mmHg (beagle dog, male, anaesthetised; intravenous infusion, 0.01 mg/kg/min, 105 min; reference: baseline).
`O=C(O)c1ccc(NCc2ccc([N+](=O)[O-])cc2)cc1` has an IC50 of greater than 100000 nM (HGF; cell viability, resazurin; 72 h, 10% FBS).
`CC[C@H](CO)N(CCN(N=O)[C@H](CC)CO)N=O`: “revertant colonies per plate” 15.3 ± 4 (Salmonella typhimurium; mutagenicity, Ames plate incorporation; TA1537; 5000 µg/plate, without S9, methanol).
The EC50 of `O=c1cc(-c2ccc(O)cc2)oc2cc(O[C@@H]3O[C@H](CO)[C@@H](O)[C@H](O)[C@H]3O)cc(O)c12` is reported as 2470 nM (ESR2 (Homo sapiens, UniProt Q92731); array formation, agonist; GFP-ERβ PRL-HeLa; 1 h).
For `COCCOC(=O)C1=C(C)NC(C)=C(C(=O)OC/C=C/c2ccccc2)C1c1cccc([N+](=O)[O-])c1` (stereo not drawn), the inhibition was 15.8% (Nedd8-cullin1 interaction; neddylation, AlphaScreen; 100 µM).
For `Cc1cc(C(=O)NC(C)(C)COc2cccc3c2C(N)=NS(=O)(=O)N3)cc(C)n1`, the cytotoxicity was 6% (human peripheral blood lymphocytes; CBPI, preliminary test; 60 µg/mL, 24 h; reference: vehicle control).
`CNC(C)C(=O)O` (racemic) — result for “host cell number”: 1.02 ± 0.019 (HCT-8; Hoechst nuclei count; 1 mM, 24 h; reference: PBS).
The inhibition of `CC[C@H](C)C(=O)O[C@H]1C[C@@H](C)C=C2C=C[C@H](C)[C@H](CC[C@@H]3C[C@@H](O)CC(=O)O3)[C@H]21` is reported as 48.4% (Nedd8-cullin1 interaction; neddylation, AlphaScreen; 100 µM).
For `Cc1cc(N)c2c(OCC(C)(C)C(=O)NC(C)C)cccc2n1`, “mean revertant colonies” read 24 colonies/plate (Salmonella typhimurium; reverse mutation, plate incorporation; TA98; 1 µg/plate, with rat liver S9).

Repeated from above:
`CC(C)=CCc1cc2c(cc1O)O[C@H](c1ccc(O)cc1)CC2=O` has a CLint of 248 µL/min/mg (UGT1A8 (Homo sapiens, UniProt Q9HAW9); glucuronidation, substrate; recombinant enzyme; pH 7.4).
